Published values from different studies.
Numbered parts are unrelated; each lists some results of a single study.

Sample 1
Target: TAR DNA-binding protein 43, full length, His tag (TARDBP, Homo sapiens, UniProt Q13148, residues 1-414)
Technique: RNA Bind-n-Seq
Molecule type: RNA
Sample: in vitro
Tested at: 20 nM
Notes: 6-mer, flanks averaged, single round
Together with: 150 mM LiCl
Baseline: input library
Reading: higher = stronger binding
Oligonucleotide	6-mer enrichment (R)
UAUCCA	0.864
CUCCCC	1.27
AAGUGC	0.973
CGUUGA	0.919

Sample 2
Target: RNA binding protein fox-1 homolog 2, RRM domain, GST-SBP tag (RBFOX2, Homo sapiens, UniProt O43251-10, residues 100-194)
Technique: RNA Bind-n-Seq
Molecule type: RNA
Sample: in vitro
Tested at: 365 nM
Notes: natural RNA segment, single round, ends assumed
Baseline: no-protein control
Reading: higher = stronger binding
Residues (chain): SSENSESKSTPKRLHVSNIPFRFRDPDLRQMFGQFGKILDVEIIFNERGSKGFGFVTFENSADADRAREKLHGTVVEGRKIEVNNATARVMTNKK
Oligonucleotide	RBNS enrichment (R)
GGGAGUUCUACAGUCCGACGAUCUUCUAGAGGGCUGACCCUGAGCACUCCAGAGUGCUUGCAGAGUUUGAGAAAUGUGAACAUGCUGUGGGGCUGAGCCUCUGCUAUAUCACCGUGAGCUGUAGGAUCAGCUGUGGAAUUCUCGGGUGCCAA	0.328
GGGAGUUCUACAGUCCGACGAUCCUGAGUAACCCAGACCCCCCACCGUGGUUCUUUUCACAGCCCUCGACUUUGCACUUAAAAAGGGAUAUUGUAAAUGAAAGGCUGCAGUGCCAGUUUUAAGAAAGAAUUUCUGGAAUUCUCGGGUGCCAA	1.95
GGGAGUUCUACAGUCCGACGAUCAUUUCAAGAGAAUAUGUUGGCCUAAUUGUUGGGUUGGCUGGGACCUGCUCUGAAGGGAUCCCUCAGUUCACCGAUUGGCAAGCCAAGGUCAGUCCUUGCUGUUGAUGGAGUGGAAUUCUCGGGUGCCAA	0.238
GGGAGUUCUACAGUCCGACGAUCUCUUGGGAAAGCCUCUCCUGGGGCCACUGUUGGGGGUGGGAGUGAGCCCACCACAGAGGCCACAGGCAGGCCCCCACUUCAGGCCCAAGGCCUGGGGCGGGGGGAACAGUUGGAAUUCUCGGGUGCCAA	0.488

Sample 3
Target: Sal-like protein 4, full length isoform B (SALL4, Homo sapiens, UniProt Q9UJQ4-2, residues 1-616)
Technique: universal PBM
Molecule type: double-stranded DNA, one strand shown
Sample: in vitro
Tested at: not given
Notes: 8-mer, flanks averaged, mean of replicates
Reading: higher = stronger binding
Oligonucleotide	E-score
AGCTCCGA	-0.0409
CCCTAACA	0.0922
ATGTCGCG	-0.0771
AAACATGA	0.263
CAGTGCTC	-0.0998
AGGGCGTA	-0.043

Mixed results
Substance	target	assay	system	setting	how to read	quantity	result
PhoQ, residues 284 288 289 292 302 303 SSTLSG	PhoP, residues 12 14 15 18 19 SEGLL (Escherichia coli, UniProt P23836)	Sort-seq, refers to: YFP reporter	E. coli	PhoQ-PhoP variant library, together with: 10 µM Mg2+	baseline: high Mg2+ state, higher = stronger signaling	fold induction	10.2

For quick reference, copied from above (mixed results):
Substance	target	assay	system	setting	how to read	quantity	result
PhoQ, residues 284 288 289 292 302 303 SSTLSG	PhoP, residues 12 14 15 18 19 SEGLL (Escherichia coli, UniProt P23836)	Sort-seq, refers to: YFP reporter	E. coli	PhoQ-PhoP variant library, together with: 10 µM Mg2+	baseline: high Mg2+ state, higher = stronger signaling	fold induction	10.2
